Published values collected from several papers.
Numbers after ± are the reported error.
Sequence of UniProt P48067 (whole entry, looked up): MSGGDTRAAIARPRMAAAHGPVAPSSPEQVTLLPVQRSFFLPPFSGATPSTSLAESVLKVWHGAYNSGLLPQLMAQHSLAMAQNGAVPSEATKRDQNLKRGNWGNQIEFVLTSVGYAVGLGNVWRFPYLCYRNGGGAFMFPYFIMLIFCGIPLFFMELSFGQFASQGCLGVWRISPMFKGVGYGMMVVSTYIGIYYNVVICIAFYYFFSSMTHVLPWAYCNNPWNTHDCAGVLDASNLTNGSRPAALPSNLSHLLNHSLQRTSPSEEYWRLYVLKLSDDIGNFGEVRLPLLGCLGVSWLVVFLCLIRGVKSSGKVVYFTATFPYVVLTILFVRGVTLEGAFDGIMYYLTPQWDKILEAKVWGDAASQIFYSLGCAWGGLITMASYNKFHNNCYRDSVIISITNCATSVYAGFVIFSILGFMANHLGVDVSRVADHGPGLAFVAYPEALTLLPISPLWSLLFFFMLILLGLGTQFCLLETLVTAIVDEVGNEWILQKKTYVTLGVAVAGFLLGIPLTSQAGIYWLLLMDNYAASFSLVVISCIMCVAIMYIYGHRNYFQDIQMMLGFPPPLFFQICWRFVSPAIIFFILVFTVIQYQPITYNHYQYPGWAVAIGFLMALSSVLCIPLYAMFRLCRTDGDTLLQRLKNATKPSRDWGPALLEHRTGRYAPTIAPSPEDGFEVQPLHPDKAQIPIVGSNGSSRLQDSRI
Sequence of UniProt P54764 (whole entry, looked up): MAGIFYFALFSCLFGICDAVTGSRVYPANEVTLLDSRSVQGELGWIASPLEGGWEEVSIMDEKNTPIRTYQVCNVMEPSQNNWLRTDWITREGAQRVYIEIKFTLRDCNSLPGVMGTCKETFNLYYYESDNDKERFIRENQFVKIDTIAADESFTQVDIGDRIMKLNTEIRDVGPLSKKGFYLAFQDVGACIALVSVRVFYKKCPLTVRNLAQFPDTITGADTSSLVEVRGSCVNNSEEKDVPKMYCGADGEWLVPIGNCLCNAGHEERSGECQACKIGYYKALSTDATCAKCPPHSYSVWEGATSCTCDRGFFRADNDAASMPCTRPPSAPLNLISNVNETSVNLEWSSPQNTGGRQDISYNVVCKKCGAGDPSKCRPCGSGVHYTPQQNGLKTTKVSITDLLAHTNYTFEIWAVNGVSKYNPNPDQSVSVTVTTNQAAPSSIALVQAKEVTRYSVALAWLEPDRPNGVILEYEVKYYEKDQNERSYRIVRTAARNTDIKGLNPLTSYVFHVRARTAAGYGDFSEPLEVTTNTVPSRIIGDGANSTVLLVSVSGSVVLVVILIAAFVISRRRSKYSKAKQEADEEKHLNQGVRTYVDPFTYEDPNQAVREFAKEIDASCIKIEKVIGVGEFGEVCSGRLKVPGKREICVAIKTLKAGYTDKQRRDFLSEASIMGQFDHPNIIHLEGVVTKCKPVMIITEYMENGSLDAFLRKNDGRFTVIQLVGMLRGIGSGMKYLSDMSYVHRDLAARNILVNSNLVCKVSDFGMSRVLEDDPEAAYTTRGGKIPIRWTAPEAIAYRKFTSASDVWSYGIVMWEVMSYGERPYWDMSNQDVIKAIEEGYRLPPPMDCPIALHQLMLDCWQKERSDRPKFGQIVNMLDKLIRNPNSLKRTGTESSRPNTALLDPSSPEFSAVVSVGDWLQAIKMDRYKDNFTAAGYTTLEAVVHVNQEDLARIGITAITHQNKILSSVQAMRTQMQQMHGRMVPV
Sequence of UniProt O00238 (whole entry, looked up): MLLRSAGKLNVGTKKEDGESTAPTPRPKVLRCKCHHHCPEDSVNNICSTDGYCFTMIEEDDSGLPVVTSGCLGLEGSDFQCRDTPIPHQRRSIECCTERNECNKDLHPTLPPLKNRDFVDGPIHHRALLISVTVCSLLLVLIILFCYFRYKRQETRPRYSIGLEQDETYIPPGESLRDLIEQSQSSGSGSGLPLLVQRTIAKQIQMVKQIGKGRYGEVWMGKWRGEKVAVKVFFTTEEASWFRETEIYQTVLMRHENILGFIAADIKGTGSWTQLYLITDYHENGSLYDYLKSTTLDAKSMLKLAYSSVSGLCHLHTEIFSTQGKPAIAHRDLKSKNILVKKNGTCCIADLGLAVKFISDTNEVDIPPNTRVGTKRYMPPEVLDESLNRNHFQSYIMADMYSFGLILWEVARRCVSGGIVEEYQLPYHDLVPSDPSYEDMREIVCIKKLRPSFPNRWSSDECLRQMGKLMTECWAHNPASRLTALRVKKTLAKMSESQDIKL
Sequence of UniProt Q16816 (whole entry, looked up): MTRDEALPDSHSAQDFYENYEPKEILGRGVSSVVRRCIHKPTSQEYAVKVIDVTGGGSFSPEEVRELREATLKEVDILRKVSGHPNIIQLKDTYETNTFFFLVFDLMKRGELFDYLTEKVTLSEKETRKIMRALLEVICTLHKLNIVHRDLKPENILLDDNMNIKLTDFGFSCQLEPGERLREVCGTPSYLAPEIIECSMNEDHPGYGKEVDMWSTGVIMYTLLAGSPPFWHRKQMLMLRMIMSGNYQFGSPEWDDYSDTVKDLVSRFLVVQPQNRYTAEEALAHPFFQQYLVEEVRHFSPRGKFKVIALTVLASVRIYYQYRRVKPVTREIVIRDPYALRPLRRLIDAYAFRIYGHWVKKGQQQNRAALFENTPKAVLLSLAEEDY
Sequence of UniProt P16277 (whole entry, looked up): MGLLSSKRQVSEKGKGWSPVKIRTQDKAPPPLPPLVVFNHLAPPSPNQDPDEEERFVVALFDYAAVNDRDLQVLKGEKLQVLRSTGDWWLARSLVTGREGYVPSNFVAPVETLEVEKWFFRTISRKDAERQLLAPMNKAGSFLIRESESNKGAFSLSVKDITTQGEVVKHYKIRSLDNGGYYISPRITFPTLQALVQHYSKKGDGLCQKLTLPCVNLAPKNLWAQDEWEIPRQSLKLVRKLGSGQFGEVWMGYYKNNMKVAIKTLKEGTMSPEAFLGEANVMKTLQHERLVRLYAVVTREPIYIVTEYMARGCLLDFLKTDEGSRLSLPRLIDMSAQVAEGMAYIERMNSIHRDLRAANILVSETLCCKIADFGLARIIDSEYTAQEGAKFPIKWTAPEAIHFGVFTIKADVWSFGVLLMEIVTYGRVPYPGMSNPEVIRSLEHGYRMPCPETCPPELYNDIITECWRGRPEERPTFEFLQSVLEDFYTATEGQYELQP
Sequence of UniProt P22310 (whole entry, looked up): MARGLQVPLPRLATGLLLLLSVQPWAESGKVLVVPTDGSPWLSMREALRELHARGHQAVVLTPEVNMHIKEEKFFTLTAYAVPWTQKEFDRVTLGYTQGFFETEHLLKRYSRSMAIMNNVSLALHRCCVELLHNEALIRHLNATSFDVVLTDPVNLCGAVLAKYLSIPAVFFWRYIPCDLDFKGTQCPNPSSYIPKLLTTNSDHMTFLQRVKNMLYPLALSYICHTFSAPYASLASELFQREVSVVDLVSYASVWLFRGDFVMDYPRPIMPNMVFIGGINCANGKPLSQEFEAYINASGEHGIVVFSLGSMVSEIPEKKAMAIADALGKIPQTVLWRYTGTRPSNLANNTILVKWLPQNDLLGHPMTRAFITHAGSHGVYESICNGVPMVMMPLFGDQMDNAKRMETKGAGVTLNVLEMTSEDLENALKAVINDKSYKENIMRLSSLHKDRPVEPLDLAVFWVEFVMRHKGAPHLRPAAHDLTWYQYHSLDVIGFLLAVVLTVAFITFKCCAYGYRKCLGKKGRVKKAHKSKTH
Sequence of UniProt O43353 (whole entry, looked up): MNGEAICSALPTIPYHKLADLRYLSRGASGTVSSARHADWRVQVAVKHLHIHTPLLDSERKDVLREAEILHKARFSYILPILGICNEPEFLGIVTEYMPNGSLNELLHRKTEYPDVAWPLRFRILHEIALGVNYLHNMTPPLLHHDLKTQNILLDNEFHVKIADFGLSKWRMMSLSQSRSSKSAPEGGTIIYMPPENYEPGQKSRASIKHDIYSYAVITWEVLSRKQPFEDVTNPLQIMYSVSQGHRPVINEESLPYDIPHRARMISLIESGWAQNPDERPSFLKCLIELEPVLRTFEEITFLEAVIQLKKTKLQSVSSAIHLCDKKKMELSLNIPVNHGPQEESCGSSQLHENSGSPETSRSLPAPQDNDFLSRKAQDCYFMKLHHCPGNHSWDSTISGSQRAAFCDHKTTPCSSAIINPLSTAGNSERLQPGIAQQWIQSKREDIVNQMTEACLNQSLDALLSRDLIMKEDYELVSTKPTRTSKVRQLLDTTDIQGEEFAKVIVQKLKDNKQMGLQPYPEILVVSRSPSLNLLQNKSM
Sequence of UniProt Q9BYT3 (whole entry, looked up): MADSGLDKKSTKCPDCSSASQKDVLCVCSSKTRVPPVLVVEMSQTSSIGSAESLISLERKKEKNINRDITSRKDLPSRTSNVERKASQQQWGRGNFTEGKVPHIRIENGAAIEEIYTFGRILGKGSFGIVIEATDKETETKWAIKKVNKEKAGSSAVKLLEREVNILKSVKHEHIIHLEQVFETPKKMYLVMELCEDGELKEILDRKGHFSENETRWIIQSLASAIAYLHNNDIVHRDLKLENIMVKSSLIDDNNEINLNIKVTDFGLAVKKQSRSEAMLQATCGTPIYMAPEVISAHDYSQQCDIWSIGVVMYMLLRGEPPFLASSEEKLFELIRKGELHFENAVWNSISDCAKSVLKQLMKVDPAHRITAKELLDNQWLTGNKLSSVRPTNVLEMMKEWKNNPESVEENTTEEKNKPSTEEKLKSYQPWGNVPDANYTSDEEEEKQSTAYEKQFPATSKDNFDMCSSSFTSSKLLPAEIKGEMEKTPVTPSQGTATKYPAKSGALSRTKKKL

Compound	target or system	assay	system	conditions	scale	quantity	result
COc1cc(-c2cncc3c2CN(C)Cc2cc(N4CCNCC4)ccc2-3)cc(OC)c1OC	RIPK2 (Homo sapiens, UniProt O43353)	kinase activity		1 µM, human enzyme, together with: ATP 10 µM	reference: DMSO control	remaining activity	27%
Cn1cc(-c2ccc(-c3cncc(Cl)c3N3CCC4(CCNC4=O)CC3)cc2)cn1	COLO 205	gene expression, microarray, item: ARHGEF2 mRNA		concentration not given, 6 h	reference: untreated cells	log2 fold change	1.22
CNCC(=O)O	SLC6A9 (Homo sapiens, UniProt P48067)	[3H]glycine uptake, inhibitor	HEK293F cells	1000 µM	reference: cells without inhibitor	remaining activity	80.5%
O=c1cc(-c2ccc(O)c(-c3c(O)cc(O)c4c(=O)cc(-c5ccc(O)cc5)oc34)c2)oc2cc(O)cc(O)c12	UGT1A4 (Homo sapiens, UniProt P22310)	glucuronidation, inhibitor	human liver microsomes	100 µM, together with: probe substrate 0.5 µM	reference: no inhibitor	remaining activity	~8%
O=C(O)c1ccc(Nc2ncc3c(n2)-c2ccc(Cl)cc2C(c2c(F)cccc2F)=NC3)cc1	human JNK2α2(h)	kinase activity		1 µM		remaining activity	141%
COc1cccc2c(Nc3ccc4[nH]c(C(=O)N/N=C/c5ccc(SC)cc5)cc4c3)cc(C)nc12	COS-7			10 µM, 24 h, 0.1% DMSO, unit not given	reference: vehicle control	necrotic cells	4.66 ± 0.99
Cc1cc(Nc2cc(N3CCN(C)CC3)nc(Sc3ccc(NC(=O)C4CC4)cc3)n2)[nH]n1	Blk (Mus musculus, UniProt P16277)	kinase activity, KinaseProfiler		0.03 µM, species mouse	reference: control	remaining activity	88%
COc1cc(N2CCN(C)CC2)ccc1Nc1nc(N)n(C(=S)NCc2c(Cl)cccc2Cl)n1	EGFR (Homo sapiens, UniProt P00533, del752-759)	enzyme activity		10 µM	reference: control	remaining activity	4.4%
CNc1ncc2c(/C=C/C(=O)N3CCC(OC)CC3)nn(Cc3cccc(C(F)(F)F)c3)c2n1	TSSK1B (Homo sapiens, UniProt Q9BXA7)	kinase activity, inhibitor		1 µM	reference: untreated control	remaining activity	90%
COc1c(O)c(C)cc2c1C(=O)c1c(cc(O)c(O)c1O)C2=O	HepaRG co-cultured with HK-2	MTT		266.67 µM, 48 h	reference: untreated control	cell viability	44 ± 9.9%
COc1cc(F)ccc1-c1ncnc(Nc2cccc(C[S@](C)(=N)=O)c2)n1	STK33 (Homo sapiens, UniProt Q9BYT3)	kinase activity		10 µM, together with: 10 µM ATP		remaining activity	93%
O=C(NC1CCC1)c1ccc2nc(-c3cccc(NS(=O)(=O)NCCN4CCCCC4)c3)cn2c1	BMPR1B (Homo sapiens, UniProt O00238)	enzyme activity		10 µM		remaining activity	75%
C=CC(=O)N1CCC[C@@H](n2nc(-c3ccc(Oc4ccccc4)cc3)c3c(N)ncnc32)C1	EPHA4 (Homo sapiens, UniProt P54764)			1 µM		remaining activity	116%
O=C1NC(=O)/C(=C/c2ccc(-c3ccc(F)cc3O)o2)S1	PHKG1 (Homo sapiens, UniProt Q16816)	enzyme activity		10 µM		remaining activity	61%
COc1cc(Nc2ncc3c(n2)-c2ccc(Cl)cc2C(c2c(F)cccc2OC)=NC3)ccc1C(=O)O	RPS6KB1	kinase activity		1 µM		remaining activity	97%
COc1cc(O)c2c(c1)C(=O)c1cc(C)cc(O)c1C2=O	HepaRG co-cultured with HK-2	MTT		66.67 µM, 48 h	reference: untreated control	cell viability	64.9 ± 10.7%
CCN1CCN(c2cc(N3CCN(CC)CC3)nc(NCCNc3ccnc4cc(Cl)ccc34)n2)CC1	COS-7			30 µM, 24 h, 0.1% DMSO, unit not given	reference: vehicle control	necrotic cells	2.72 ± 0.65
CC(C)C[C@H](NC(=O)C[C@H](O)[C@H](CC(C)C)NC(=O)[C@H](Cc1c[nH]cn1)NC(=O)CNC(=O)[C@@H](NC(=O)[C@H](C)NC(=O)[C@H](Cc1c[nH]c2ccccc12)NC(=O)[C@H](CCC(N)=O)NC(=O)[C@@H](Cc1ccccc1)NC(=O)COCCOCCNC(=O)CCC(C(=O)O)N1CCN(CC(=O)O)CCN(CC(=O)O)CCN(CC(=O)O)CC1)C(C)C)C(N)=O (stereo partly drawn) [lutetium-177 labelled]			BALB/c nu/nu mice, female, brain	100 pmol, 30 min, time course 0.5 h, together with: PA 300 µg		tissue uptake	0.07 ± 0.03 %ID/g
